Assay results pooled from the literature.
Every numbered part comes from another study and shows a few of its results, in no order.

Study 1 — technique: protein-binding microarray; form: double-stranded DNA, one strand shown; sample: in vitro; tested at: 2200 nM top; notes: 60-bp whole probe; with: salmon DNA 0.4 mg/ml; baseline: random background probes; direction: higher = stronger binding; measurement: fitted relative affinity
Target: Interferon regulatory factor 7, full length, phosphomimetic (IRF7, Homo sapiens, UniProt Q92985, residues 1-503, S471D/S472D/S475D/S476D/S477D/S483D/S484D/S487D)
Construct (chain): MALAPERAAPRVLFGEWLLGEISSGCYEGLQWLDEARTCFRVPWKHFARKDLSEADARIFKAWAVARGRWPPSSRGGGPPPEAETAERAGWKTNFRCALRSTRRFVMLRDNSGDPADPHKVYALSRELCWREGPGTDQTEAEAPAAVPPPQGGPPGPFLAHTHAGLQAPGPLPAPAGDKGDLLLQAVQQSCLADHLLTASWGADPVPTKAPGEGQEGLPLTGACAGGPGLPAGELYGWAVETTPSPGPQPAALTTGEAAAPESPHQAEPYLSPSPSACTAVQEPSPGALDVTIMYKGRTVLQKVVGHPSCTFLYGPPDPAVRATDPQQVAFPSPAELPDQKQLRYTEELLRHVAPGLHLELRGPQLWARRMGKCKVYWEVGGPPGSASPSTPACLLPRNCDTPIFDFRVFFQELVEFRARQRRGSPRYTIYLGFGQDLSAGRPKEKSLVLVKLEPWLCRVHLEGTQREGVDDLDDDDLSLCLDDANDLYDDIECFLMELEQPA
Strand = GCCTAGCACGTCGATATCGGGTTTCGAGACGTGCTAGTCTTGATTCGCTTGACGCTGCTG; result = 2.11 z-score
Strand = GCCTAGCACTCATTTTCGTTTTTATTATTGTGCTAGGTCTTGATTCGCTTGACGCTGCTG; result = 12 z-score
Strand = GCCTAGCACTCATCTAAGGATTTCAGACTGTGCTAGGTCTTGATTCGCTTGACGCTGCTG; result = -0.0693 z-score
Strand = GCCTAGCACGACGCTTTCGGACTGGGGACGTGCTAGGTCTTGATTCGCTTGACGCTGCTG; result = 4.4 z-score

Study 2 — technique: RNA Bind-n-Seq; form: RNA; sample: in vitro; tested at: 365 nM; baseline: no-protein control; direction: higher = stronger binding; measurement: RBNS enrichment (R)
Target: RNA binding protein fox-1 homolog 2, RRM domain, GST-SBP tag (RBFOX2, Homo sapiens, UniProt O43251-10, residues 100-194)
Notes: natural RNA segment, single round, ends assumed
Target sequence (chain): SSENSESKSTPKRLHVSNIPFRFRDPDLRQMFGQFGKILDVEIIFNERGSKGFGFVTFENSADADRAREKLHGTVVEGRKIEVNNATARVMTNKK
Strand = GGGAGUUCUACAGUCCGACGAUCGGGCAGAACAUAUGGGUUAAAUCUCGGUAGAGAGUUUCCCUCAUCCUCUAUCCGUAAGUGUCCUUCCAUGCAAGGUCCCACUCUAGGUGAUAGACAGGGACCCCUUCUACUGGAAUUCUCGGGUGCCAA; result = 0.207
Strand = GGGAGUUCUACAGUCCGACGAUCCUUCUGGUCCCCUGUGGUGAUGUGCCUGUAAUCUUUUUCUCCACCCAAACCCCUUCCCACGACAAAAACAAGACUGCCUCCCUCUCUUCCGGGAGCUGGUGACAGCCUUGUGGAAUUCUCGGGUGCCAA; result = 0.735
Strand = GGGAGUUCUACAGUCCGACGAUCUCUCUUGAAUGUAGCCCCACCCUGUAGGUCCUCUCAAAGCCAGAGCCCUGUUCUUAAAUUACUAGUGAUUCUAGUAGUGACAUCGUUAGUAAUUUAACUCUAUAAUUGCAUGGAAUUCUCGGGUGCCAA; result = 1.91

Study 3 — technique: protein-binding microarray; form: double-stranded DNA, one strand shown; sample: in vitro; tested at: not given; direction: higher = stronger binding; measurement: E-score
Target: Transcription factor Sp1 (SP1, Homo sapiens, UniProt P08047, residues 1-785, full length assumed)
Sequence of UniProt P08047 (whole entry, looked up): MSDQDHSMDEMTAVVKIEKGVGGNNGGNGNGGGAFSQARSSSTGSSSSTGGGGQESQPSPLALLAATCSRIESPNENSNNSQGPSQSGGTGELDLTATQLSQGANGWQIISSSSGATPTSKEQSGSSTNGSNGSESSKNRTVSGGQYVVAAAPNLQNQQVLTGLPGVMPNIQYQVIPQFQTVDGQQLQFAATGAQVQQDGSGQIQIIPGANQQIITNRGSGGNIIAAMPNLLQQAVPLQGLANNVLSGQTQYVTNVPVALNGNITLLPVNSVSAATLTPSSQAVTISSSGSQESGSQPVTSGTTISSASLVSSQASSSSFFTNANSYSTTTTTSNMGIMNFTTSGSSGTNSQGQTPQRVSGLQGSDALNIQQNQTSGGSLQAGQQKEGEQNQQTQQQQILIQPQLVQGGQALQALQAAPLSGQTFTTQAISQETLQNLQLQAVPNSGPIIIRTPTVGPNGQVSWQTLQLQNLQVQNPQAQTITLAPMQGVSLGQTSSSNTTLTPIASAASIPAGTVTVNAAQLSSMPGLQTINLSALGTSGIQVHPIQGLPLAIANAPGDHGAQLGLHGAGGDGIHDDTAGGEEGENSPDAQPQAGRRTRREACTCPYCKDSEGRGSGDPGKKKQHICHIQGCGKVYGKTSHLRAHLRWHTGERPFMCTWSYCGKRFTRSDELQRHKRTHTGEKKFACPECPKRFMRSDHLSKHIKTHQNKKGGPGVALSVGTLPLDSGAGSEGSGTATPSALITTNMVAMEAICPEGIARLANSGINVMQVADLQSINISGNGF
Notes: k-mer, scored over probes, only values ≥0.25
Strand = CCGCCTCC; result = 0.374
Strand = AATGTCAC; result = 0.275
Strand = ATGGGGCG; result = 0.434

Mixed results
Molecule = PhoQ, residues 284 288 289 292 302 303 GNNTDL; target = PhoP, residues 12 14 15 18 19 NNFVT (Escherichia coli, UniProt P23836); test = Sort-seq, refers to: YFP reporter; test system = E. coli; conditions = PhoQ-PhoP variant library, with: 10 µM Mg2+; how to read = baseline: high Mg2+ state, higher = stronger signaling; measurement = fold induction; result = 1.81

Repeated from above (study 2):
Strand = GGGAGUUCUACAGUCCGACGAUCUCUCUUGAAUGUAGCCCCACCCUGUAGGUCCUCUCAAAGCCAGAGCCCUGUUCUUAAAUUACUAGUGAUUCUAGUAGUGACAUCGUUAGUAAUUUAACUCUAUAAUUGCAUGGAAUUCUCGGGUGCCAA; result = 1.91
